Results from different studies.
Numbered parts are unrelated; each lists some results of a single study.

Sample 1 — technique: universal PBM; form: double-stranded DNA, one strand shown; sample: in vitro; concentration: 600 nM; reading: higher = stronger binding
Target: Sal-like protein 4, full length isoform A (SALL4, Homo sapiens, UniProt Q9UJQ4, residues 1-1053)
Chain of UniProt Q9UJQ4 (whole entry, looked up): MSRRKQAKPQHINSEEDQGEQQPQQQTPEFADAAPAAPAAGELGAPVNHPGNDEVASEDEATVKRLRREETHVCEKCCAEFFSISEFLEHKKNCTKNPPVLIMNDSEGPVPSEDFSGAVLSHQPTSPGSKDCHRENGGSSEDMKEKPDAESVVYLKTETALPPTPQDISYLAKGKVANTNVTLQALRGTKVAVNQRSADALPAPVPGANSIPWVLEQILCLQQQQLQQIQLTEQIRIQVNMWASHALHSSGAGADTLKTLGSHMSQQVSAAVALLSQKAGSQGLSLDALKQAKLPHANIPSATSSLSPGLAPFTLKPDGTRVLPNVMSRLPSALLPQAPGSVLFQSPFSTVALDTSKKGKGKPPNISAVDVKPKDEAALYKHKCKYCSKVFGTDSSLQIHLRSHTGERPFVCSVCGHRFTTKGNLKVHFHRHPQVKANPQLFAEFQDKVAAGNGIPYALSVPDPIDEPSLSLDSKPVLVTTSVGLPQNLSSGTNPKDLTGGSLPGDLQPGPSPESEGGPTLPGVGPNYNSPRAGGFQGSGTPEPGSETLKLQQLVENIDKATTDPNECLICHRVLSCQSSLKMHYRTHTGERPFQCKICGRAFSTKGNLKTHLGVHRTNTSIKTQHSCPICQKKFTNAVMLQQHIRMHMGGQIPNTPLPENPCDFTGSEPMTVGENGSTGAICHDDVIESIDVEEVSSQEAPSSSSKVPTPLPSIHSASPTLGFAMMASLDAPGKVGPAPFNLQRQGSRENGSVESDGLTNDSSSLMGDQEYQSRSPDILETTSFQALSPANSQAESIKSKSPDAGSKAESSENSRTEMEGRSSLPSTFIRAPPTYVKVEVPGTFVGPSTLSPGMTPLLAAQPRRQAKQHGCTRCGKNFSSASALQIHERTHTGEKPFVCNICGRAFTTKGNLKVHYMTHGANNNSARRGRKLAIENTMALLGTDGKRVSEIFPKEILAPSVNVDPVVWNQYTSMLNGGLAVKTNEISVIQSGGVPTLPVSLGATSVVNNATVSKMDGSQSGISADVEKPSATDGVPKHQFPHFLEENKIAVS
Setting: 8-mer, flanks averaged, mean of replicates
Oligonucleotide	E-score
AAATAATG	0.332
CCATGTCA	-0.0382
CAGTGAAC	-0.0596
ACTACTCG	0.0444
CCAACCCA	-0.156
AGAGCGGG	-0.227
GTAAGTAA	0.0916
CGTAGTTC	-0.161
CGAAGGAA	0.0719
TGCGCACA	-0.0468
ACGGGGCA	-0.284
GATTTGGC	0.0123
GGAAGAAA	0.143
GGGTCGCA	-0.0899
ACTGTACC	-0.0549
GAGGTGTA	-0.0643
AACACTGG	0.0822
ATTCTCCG	-0.14
GCGGTGCC	-0.361
GACAGAAC	-0.0146
ACGATCGT	-0.103
GAAGTGAA	0.112
GTGTGGGA	-0.033
GTTGCGTA	0.0843

Sample 2 — technique: competition protein-binding microarray; form: double-stranded DNA, one strand shown; sample: in vitro; concentration: 2 µM; with: Pho4 competitor, 0.05 µM; reading: higher = stronger binding
Target: Centromere-binding protein 1, full length, His-tagged (CBF1, Saccharomyces cerevisiae, UniProt P17106, residues 1-351)
Chain of UniProt P17106 (whole entry, looked up): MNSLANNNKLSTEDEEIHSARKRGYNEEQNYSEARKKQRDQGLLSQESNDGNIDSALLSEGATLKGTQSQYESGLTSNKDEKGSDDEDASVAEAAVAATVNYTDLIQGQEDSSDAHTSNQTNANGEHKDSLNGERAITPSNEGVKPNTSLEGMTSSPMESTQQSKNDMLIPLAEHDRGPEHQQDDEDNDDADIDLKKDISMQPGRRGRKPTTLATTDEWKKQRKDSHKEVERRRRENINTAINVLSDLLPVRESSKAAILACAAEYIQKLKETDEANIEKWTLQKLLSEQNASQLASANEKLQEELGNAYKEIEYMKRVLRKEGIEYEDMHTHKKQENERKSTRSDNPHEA
Setting: whole 60-bp probe, lowest competitor level
Oligonucleotide	fluorescence intensity [a.u.]
CATACCCAACCTTTTCACGTGAAATAAGATATTTGTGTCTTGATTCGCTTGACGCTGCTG	915
AGTCCCAATACCTCTCACGTTTTGGGGGAATAGTTCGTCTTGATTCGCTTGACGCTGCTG	206
TTCTTCCAATCGAGTCACGTCGCGTCCTCGGAGGCAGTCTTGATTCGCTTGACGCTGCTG	124
CGGGGTTAAGTTTGACTTGTGGGTGGCTTGCAGCAGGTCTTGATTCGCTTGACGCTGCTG	74.5
CGTCCTAGTGATTGTTCCGTGGGTGCCATGAGGAAGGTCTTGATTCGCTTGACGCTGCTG	87.8
TAAAGGGACCGCTACCACATGGACAAGGAAATTTGCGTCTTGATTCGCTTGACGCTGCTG	73.3
AAGAAATGAGGCCGTCACAGATGTTAAGAATTGAAGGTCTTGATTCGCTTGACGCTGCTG	71.8
CATACCCAACCTTGTCACCTCACTTAAGATATTTGTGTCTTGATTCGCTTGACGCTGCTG	73.4
CTAACGAAGGTTTGCCACGTGGGTGACAAGCCAAGTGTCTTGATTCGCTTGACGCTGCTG	883
CTAACGAAGGTTTGACACGTGTTTTACAAGCCAAGTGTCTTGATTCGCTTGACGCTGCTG	1590
CAGCAACGGACAGGCGTCGTGCGGACAAACTTGCTCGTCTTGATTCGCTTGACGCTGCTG	62.1
GTCTTGTCTCATTGGTCCGTGGGTGTCCCCACTTCAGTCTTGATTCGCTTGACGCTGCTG	89.1
TTCCAGGAATAAAAGACCGTGCCAGTAATTTCAAGTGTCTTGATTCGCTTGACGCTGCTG	96
GTCTTGTCTCATTGTCACATTACTTTCCCCACTTCAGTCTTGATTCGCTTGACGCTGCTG	122
AAAGTCTGCGACAATCACGTGCTAAAGCTGGTCTCAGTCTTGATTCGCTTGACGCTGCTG	5360
AAGGCGTCTTGTCACCACGTCTTCCAGTTATGGTCTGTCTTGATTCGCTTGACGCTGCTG	61.5
CATGAGAGCCATTTGCACGTTTACCGTTGAATTCCGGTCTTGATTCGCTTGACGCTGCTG	112
CATGCTGTAGCTATCGTCGTGATGGCTTTTACTGGCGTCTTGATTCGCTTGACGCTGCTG	82.8
CAACATCAGCGCTGTCATGCGGTCTTTGAAATTCCTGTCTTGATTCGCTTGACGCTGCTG	87.2
CTGCGCATACGAATACACATGAGTGCCATAAAACAAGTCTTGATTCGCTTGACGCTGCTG	97.9
GTATTTTTTGTTTTTCACGTGATGGAATCGGCTTCGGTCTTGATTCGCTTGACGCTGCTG	3240
TTCTACTATCCGTGAAGCGTGACGGGCCCTTCTCAAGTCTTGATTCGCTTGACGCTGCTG	120

Sample 3 — technique: RNA Bind-n-Seq; form: RNA; sample: in vitro; concentration: 365 nM; relative to: no-protein control; reading: higher = stronger binding
Target: RNA binding protein fox-1 homolog 2, RRM domain, GST-SBP tag (RBFOX2, Homo sapiens, UniProt O43251-10, residues 100-194)
Setting: natural RNA segment, single round, ends assumed
Target sequence (chain): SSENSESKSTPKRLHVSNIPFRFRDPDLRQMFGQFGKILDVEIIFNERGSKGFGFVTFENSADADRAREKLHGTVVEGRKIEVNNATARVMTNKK
Oligonucleotide	RBNS enrichment (R)
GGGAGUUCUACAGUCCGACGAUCCUUGGUGUGAUAUGGCUGACUCCCAUGUCCUUCUUUCUUGGCUGAAGCAAACCAGUUAAUCUCAGUGUAAUUUCAUUCAGCUUUUCAUGUGCUUUGUAUUCAAUCAGAAUUGGAAUUCUCGGGUGCCAA	0.459
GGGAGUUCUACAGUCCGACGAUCCUGAUGCACCACAGGCCCUCCCUACUGGAAGUGGGAACUUCAAAUGGAAAUUGGAGCCAUCUUUUAUCCCAGAAGCCUUUGCUGCUGCCAGGGCAAGUGGGCUGGUGUGGUGGAAUUCUCGGGUGCCAA	0.347
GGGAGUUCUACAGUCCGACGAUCAAUGCCUUAAUGUAAUUAGCCUCAGUUUGAGGACACCAUACAAGACGUGGGACACCAUUCAAUUGAUUGCUUUAAGGAAUUUUUAGAGACAUUAUACAGUAUCCUUUUCAUGGAAUUCUCGGGUGCCAA	0.652
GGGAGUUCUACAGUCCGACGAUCUCUGUCUGGACAUGCUUCCUAAAAACAGACCAUUUUCCUUAACUUGCAUCAGUUUUGGUCUGCCUUAUGAGUUCUGUUUUGAACAAGUGUAACACACUGAUGGUUUUAAUUGGAAUUCUCGGGUGCCAA	1.02
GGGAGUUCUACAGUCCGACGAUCUGCUCAGUGCCCCACCAGGCGUGGGCCUGGUCUCAGCGGCGGCUGCAGCCGUAGCAGCAUCCAUCUCCAGCAAGUCUCCUGGCCUCUCCUCGUCUUCUUCAUCCUCAUCAUGGAAUUCUCGGGUGCCAA	2.11
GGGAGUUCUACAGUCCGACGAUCUUCAUUCUCUGUAACUUCAGUUCUGGUGUUUUCCUUGAGUAUCUACUUGGCUUCUCGUGGUUUUUCCCACCCCAGCUGCCCCAGCACGCGGGACCCAUAGCACACCCCUUUGGAAUUCUCGGGUGCCAA	1.76
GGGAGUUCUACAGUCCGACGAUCAAAUAUAACAAUGUCUGAGUUUCACCUAAGAUGUUUUUGUGCCAUAUGCUGGAUAUCCAGGUUCUCGCCAGGCCCCGAUACAUGAAUAACAAACCCAAGAAACGCAUCCCUGGAAUUCUCGGGUGCCAA	0.514
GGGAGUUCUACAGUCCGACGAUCAGAUUGGAUCAUUUCCUUUUGAGUGUUCUUCUCUUUGGUACAAAAGCUAUUGUGGGUGACAGGAGCAGUGUUUUCCUGCUGGACCCGCAAGCCACCAGCUAUUUCCUGGUUGGAAUUCUCGGGUGCCAA	0.299
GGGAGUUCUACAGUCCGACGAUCGUGAUUGCAAUCCGUGUAUUUUGACCAAAGUUCUCUAUUUUUCCUUGACUAAAACAAGAUAAUGAGACAUAAUUUUCUUUAUAAUGUGUACAACACCUAAUAUACACUAAUGGAAUUCUCGGGUGCCAA	0.443

Sample 4 — technique: RNA Bind-n-Seq; form: RNA; sample: in vitro; concentration: 200 nM; setting: whole 134-nt RNA, ends assumed; with: 150 mM LiCl; relative to: input library; reading: higher = stronger binding; library: 7-deaza-guanosine replaces G
Target: Ras GTPase-activating protein-binding protein 1, full length (G3BP1, Homo sapiens, UniProt Q13283)
Chain of UniProt Q13283 (whole entry, looked up): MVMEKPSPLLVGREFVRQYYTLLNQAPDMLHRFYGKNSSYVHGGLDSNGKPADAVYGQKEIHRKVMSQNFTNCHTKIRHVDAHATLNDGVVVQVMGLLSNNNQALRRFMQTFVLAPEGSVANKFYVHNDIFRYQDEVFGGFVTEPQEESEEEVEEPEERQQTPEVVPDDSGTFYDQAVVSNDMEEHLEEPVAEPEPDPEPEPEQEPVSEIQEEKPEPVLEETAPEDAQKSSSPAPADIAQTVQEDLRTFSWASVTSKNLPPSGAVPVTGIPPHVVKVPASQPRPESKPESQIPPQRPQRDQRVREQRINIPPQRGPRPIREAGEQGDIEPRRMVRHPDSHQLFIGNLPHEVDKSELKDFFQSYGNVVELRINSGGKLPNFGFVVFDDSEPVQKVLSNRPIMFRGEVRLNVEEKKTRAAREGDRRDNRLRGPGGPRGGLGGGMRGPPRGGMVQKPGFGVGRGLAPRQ
Oligonucleotide	log2 enrichment
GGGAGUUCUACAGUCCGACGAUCUUCCCACAGCCCAAAAAUCUUCUCAACAGUGUGAUUGGAAGAGCCCUCGGCAUCUCACAUGCAAAAGACAAACUAGUCUACGUGCACACAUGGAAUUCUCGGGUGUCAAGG	1.13
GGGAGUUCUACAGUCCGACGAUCAGUCCUGUGCUACACAUCGUAUGUACCGAAUCGGGUUUGGGUUUUUGGGUUUUUGGGAAAGUAUUAUGUUACGCCGUUCGGAUCUGCACUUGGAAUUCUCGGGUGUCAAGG	-0.674
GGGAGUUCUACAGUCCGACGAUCCUCAAGUCCUGUGCUACACAUCGUAUGUACCGAAUCGGGAGGGUGGGAAAGGGAAAGUAUUAUGUUACGCCGUUCGGAUCUGCACUUCCAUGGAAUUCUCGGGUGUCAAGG	-0.333
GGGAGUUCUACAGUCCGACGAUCGUCCUGUGCUACACAUCGUAUGUACCGAAUCGGUUUUUGGGGUUUUUGGGUUUUUGGGAAAGUAUUAUGUUACGCCGUUCGGAUCUGCACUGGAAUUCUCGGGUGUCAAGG	-0.159
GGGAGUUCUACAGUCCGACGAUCAAGUCCUGUGCUACACAUCGUAUGUACCGAAUCGGGGAAAAGGAAAAGGAAAAGGGAAAGUAUUAUGUUACGCCGUUCGGAUCUGCACUUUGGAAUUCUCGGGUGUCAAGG	-0.292
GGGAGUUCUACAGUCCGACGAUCGGAAGGGGGCUUGCGCCACGGCAGUGAAUCUUCAUGGAUCUUCAUGCAGCCAUACAAACCCUGGUUCCAACAGAAUGGUGAAUUUUCGACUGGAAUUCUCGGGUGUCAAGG	-1.28
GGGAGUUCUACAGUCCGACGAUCCUGUGCUACACAUCGUAUGUACCGAAUCGUGUGUGUGUGUGUGUGUGUGUGUGUGUGUGUGUAAAGUAUUAUGUUACGCCGUUCGGAUCUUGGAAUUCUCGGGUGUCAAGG	-0.336
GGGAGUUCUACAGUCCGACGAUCUGUGAGCGGAGCCUGGAGGAGCUGCUGCACUACGUGGGCCAGCUGCGGGCUGAGCUGGCCAGCGCAGGUGGGUGGCCACCCUUGCAAGUGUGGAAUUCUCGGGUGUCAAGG	-0.153
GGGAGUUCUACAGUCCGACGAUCACCAUGCAGGUGGUCAUCUUUGGGAAGUGGGGCAAGGGGGGGAUAGGGAGGGGGGUAACACUUUGGGAACAGGUGGUCCCAGGUCGUUUCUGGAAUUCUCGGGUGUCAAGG	0.659
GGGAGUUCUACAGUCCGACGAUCGUCCUGUGCUACACAUCGUAUGUACCGAAUCGGGUGGGUUUUUUUGGGAAAAAAAGGGAAAGUAUUAUGUUACGCCGUUCGGAUCUGCACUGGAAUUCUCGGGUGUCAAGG	-0.31
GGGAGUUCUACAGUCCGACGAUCUUGUAUUAAGACAACGCUCCUCGACUUAGAUGCCUUGGCAAGACAUUUGGCUGACUGUAUUCGAAGGUAAAAUUUGAUGUGAAAUUGACAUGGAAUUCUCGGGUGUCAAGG	0.00775

Repeated from above (sample 2):
Oligonucleotide	fluorescence intensity [a.u.]
TAAAGGGACCGCTACCACATGGACAAGGAAATTTGCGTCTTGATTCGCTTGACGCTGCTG	73.3
AAGAAATGAGGCCGTCACAGATGTTAAGAATTGAAGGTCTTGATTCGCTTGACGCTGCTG	71.8
CATACCCAACCTTGTCACCTCACTTAAGATATTTGTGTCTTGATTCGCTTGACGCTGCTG	73.4
CTAACGAAGGTTTGCCACGTGGGTGACAAGCCAAGTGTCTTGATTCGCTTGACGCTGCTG	883
CTAACGAAGGTTTGACACGTGTTTTACAAGCCAAGTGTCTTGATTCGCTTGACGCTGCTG	1590
CAGCAACGGACAGGCGTCGTGCGGACAAACTTGCTCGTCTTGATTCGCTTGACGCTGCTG	62.1
GTCTTGTCTCATTGGTCCGTGGGTGTCCCCACTTCAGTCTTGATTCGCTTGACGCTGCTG	89.1
TTCCAGGAATAAAAGACCGTGCCAGTAATTTCAAGTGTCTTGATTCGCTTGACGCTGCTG	96
